Measured values collected from several papers.
Compare with care: the assays were run in different laboratories. ± marks the error that the study gave.

Structure (SMILES) | system | setting | how to read | quantity | value
CC(C)(Sc1ccncc1-c1ccc(C#N)c2ccccc12)C(=O)O | human, male, urine and plasma | oral, 10 mg, together with: allopurinol 300 mg | reference: combination over alone | renal clearance ratio | 105%
COC(=O)c1ccc2c(c1)NC(=O)/C2=C(\Nc1ccc(N(C)C(=O)CN2CCN(C)CC2)cc1)c1ccccc1 | healthy human controls matched to Child-Pugh B, urine and plasma | oral, 100 mg single dose, geometric mean | – | renal clearance (0-72 h) | 19.5 mL/min
CCOc1ccc(Cc2cc([C@]34OC[C@](CO)(O3)[C@@H](O)[C@H](O)[C@H]4O)ccc2Cl)cc1 | human, type 2 diabetes, mild renal impairment | oral, 15 mg | – | renal clearance | 0.99 mL/min
Oc1ncnc2[nH]ncc12 | human, male, urine and plasma | oral, 10 mg, together with: allopurinol 300 mg | reference: combination over alone | renal clearance ratio | 87.5%
CC[C@@H]1CN(C(=O)NCC(F)(F)F)C[C@@H]1c1cnc2cnc3[nH]ccc3n12 | human, severe renal impairment, urine and plasma | oral, 15 mg single dose, extended release, fasted, arithmetic mean | – | renal clearance | 17.7 mL/min
O=C(c1cccnc1-c1ccncc1)N1CCC(O)(Cc2ccccc2)CC1 | healthy human, urine | oral, 400 mg once daily, day 1, arithmetic mean | – | renal clearance | 6.17 mL/min
CC(C)c1nc(N(C)S(C)(=O)=O)nc(-c2ccc(F)cc2)c1/C=C/[C@@H](O)C[C@@H](O)CC(=O)O | healthy human | oral, dose not given, together with: darolutamide | reference: with darolutamide over alone | renal clearance ratio | 0.97
CC(C)(C)OC[C@@H]1C(=O)NCCN1C(=O)C[C@H](N)Cc1cc(F)c(F)cc1F | human | 20 mg once daily, day 10 | – | renal clearance at steady state | 250 ± 23.3 mL/min
